Measurements collected from several papers.
A part holds a random share of what one study measured.

Study 1 — concentration: 1 µM
Compound: COc1ccc2c(O[C@@H]3C[C@H]4C(=O)N[C@]5(C(=O)O)CC5/C=C\CCCCC[C@H](NC(=O)OC5CCCC5)C(=O)N4C3)cc(-c3csc(NC(=O)C(C)C)n3)nc2c1C (some centres unmarked)
target	test	remaining binding [%]
Tyrosine-protein kinase ABL1, phosphorylated (ABL1, Homo sapiens, UniProt P00519, H396P)	cell-free assay, competition with immobilised ligand	91
Cyclin-dependent kinase 18 (CDK18, Homo sapiens, UniProt Q07002)	cell-free assay, competition with immobilised ligand	100
Serine/threonine-protein kinase WNK1 (WNK1, Homo sapiens, UniProt Q9H4A3)	cell-free assay, competition with immobilised ligand	100
Mast/stem cell growth factor receptor Kit (KIT, Homo sapiens, UniProt P10721, V559D)	cell-free assay, competition with immobilised ligand	91
Transient receptor potential cation channel subfamily M member 6 (TRPM6, Homo sapiens, UniProt Q9BX84)	cell-free assay, competition with immobilised ligand	100
Ribosomal protein S6 kinase alpha-6, N-terminal kinase domain (RPS6KA6, Homo sapiens, UniProt Q9UK32)	cell-free assay, competition with immobilised ligand	92
Inhibitor of nuclear factor kappa-B kinase subunit beta (IKBKB, Homo sapiens, UniProt O14920)	cell-free assay, competition with immobilised ligand	83
Protein kinase C iota type (PRKCI, Homo sapiens, UniProt P41743)	cell-free assay, competition with immobilised ligand	96
Activin receptor type-1-like (ACVRL1, Homo sapiens, UniProt P37023)	cell-free assay, competition with immobilised ligand	97
Serine/threonine-protein kinase MRCK gamma (CDC42BPG, Homo sapiens, UniProt Q6DT37)	competition binding	100
Mitogen-activated protein kinase kinase kinase 12 (MAP3K12, Homo sapiens, UniProt Q12852)	cell-free assay, competition with immobilised ligand	92
Homeodomain-interacting protein kinase 4 (HIPK4, Homo sapiens, UniProt Q8NE63)	cell-free assay, competition with immobilised ligand	99
Serine/threonine-protein kinase BRSK2 (BRSK2, Homo sapiens, UniProt Q8IWQ3)	cell-free assay, competition with immobilised ligand	100
Phosphatidylinositol 5-phosphate 4-kinase type-2 gamma (PIP4K2C, Homo sapiens, UniProt Q8TBX8)	cell-free assay, competition with immobilised ligand	89
Cyclin-dependent kinase-like 2 (CDKL2, Homo sapiens, UniProt Q92772)	cell-free assay, competition with immobilised ligand	89

Study 2 — SMILES: c1ccc2c(-c3ccncc3)c[nH]c2c1; read-out: enzyme activity; mode: inhibitor; concentration: 0.5 µM; relative to: control
target	remaining activity
Aurora kinase C (AURKC, Homo sapiens, UniProt Q9UQB9)	93.1%
Ribosomal protein S6 kinase beta-1 (RPS6KB1, Homo sapiens, UniProt P23443)	79.9%
Beta-adrenergic receptor kinase 1 (GRK2, Homo sapiens, UniProt P25098)	97.7%
Serine/threonine-protein kinase pim-2 (PIM2, Homo sapiens, UniProt Q9P1W9)	105%
Protein kinase C epsilon type (PRKCE, Homo sapiens, UniProt Q02156)	81.5%
Receptor-type tyrosine-protein kinase FLT3 (FLT3, Homo sapiens, UniProt P36888)	91.5%
NUAK family SNF1-like kinase 1 (NUAK1, Homo sapiens, UniProt O60285)	94.8%
Protein kinase C gamma type (PRKCG, Homo sapiens, UniProt P05129)	99.4%
Cytoplasmic tyrosine-protein kinase BMX (BMX, Homo sapiens, UniProt P51813)	95.8%
Macrophage colony-stimulating factor 1 receptor (CSF1R, Homo sapiens, UniProt P07333)	101%
Serine/threonine-protein kinase Sgk1 (SGK1, Homo sapiens, UniProt O00141)	93.8%
G protein-coupled receptor kinase 6 (GRK6, Homo sapiens, UniProt P43250)	103%
SRSF protein kinase 3 (SRPK3, Homo sapiens, UniProt Q9UPE1)	96%
Tyrosine-protein kinase CSK (CSK, Homo sapiens, UniProt P41240)	107%
Ribosomal protein S6 kinase alpha-1 (RPS6KA1, Homo sapiens, UniProt Q15418)	93.8%
Glycogen synthase kinase-3 alpha (GSK3A, Homo sapiens, UniProt P49840)	103%
Fibroblast growth factor receptor 4 (FGFR4, Homo sapiens, UniProt P22455)	84.6%
Serine/threonine-protein kinase PAK 2 (PAK2, Homo sapiens, UniProt Q13177)	84%
Ephrin type-A receptor 7 (EPHA7, Homo sapiens, UniProt Q15375)	98.2%
Ephrin type-B receptor 2 (EPHB2, Homo sapiens, UniProt P29323)	114%
Myosin light chain kinase, smooth muscle (MYLK, Homo sapiens, UniProt Q15746)	96.8%

Study 3 — mode: agonist
Target: Beta-1 adrenergic receptor (ADRB1, Homo sapiens, UniProt P08588)
Structure (SMILES)	Emax [%]
CN(Cc1ccccc1)Cc1ccccc1OCC(O)CN1CCCCC1 (centres unmarked)	96.3
Oc1ccc(CCNCCCCCCNCCc2ccccc2)cc1O	96.6
CN(Cc1ccc(F)cc1)Cc1ccccc1OCC(O)CN1CCCCC1 (centres unmarked)	96.4
CCc1cc2c(cc1CC)CC(NCC(O)c1ccc(O)c3[nH]c(=O)ccc13)C2 (centres unmarked)	66
CC(C)(C)NCC(O)COc1ccccc1-c1ccccc1 (centres unmarked)	95.1
CN1Cc2sccc2C(c2ccc(O)c(O)c2)C1 (centres unmarked)	72.2
COc1ccccc1N1CCN(CC2CCOCC2)CC1	85.9
COc1cc(NC(=O)CCN2CCC(OC(=O)Nc3ccccc3-c3ccccc3)CC2)c(Cl)cc1CNC[C@H](O)c1ccc(O)c2[nH]c(=O)ccc12	91.5

Study 4 — read-out: enzyme activity; mode: inhibitor; concentration: 10 µM
Target: Calcium/calmodulin-dependent protein kinase type II subunit alpha (CAMK2A, Homo sapiens, UniProt Q9UQM7)
Compound	inhibition [%]
O=C(O)CN(CCN(CC(=O)O)CC(=O)O)CCN(CC(=O)O)CC(=O)O	9
O=C(O[C@@H]1O[C@@H]2COC(=O)c3cc(O)c(O)c(O)c3-c3c(cc(O)c(O)c3O)C(=O)O[C@H]([C@H]1O)[C@@H]2O)c1cc(O)c(O)c(O)c1	-5
CCCCC[C@H](O)/C=C/[C@H]1[C@H](O)CC(=O)[C@@H]1C/C=C\CCCC(=O)O	37
CC(C)=CCc1c(O)cc(O)c2c(=O)cc(-c3ccc(O)cc3)oc12	30
CC(=O)c1ccc(C)cc1C	5
CC(C)c1ccc2c(c1)CC[C@H]1[C@](C)(C(=O)O)CCC[C@]21C	1
C[C@@H]1O[C@@H](O[C@@H]2[C@@H](O)[C@H](OCCc3ccc(O)c(O)c3)O[C@H](COC(=O)/C=C/c3ccc(O)c(O)c3)[C@H]2O)[C@H](O)[C@H](O)[C@H]1O	-15
Cn1c(Cc2ccccc2)nc(=O)c2ccccc21	-26
CC(=O)O[C@H]1[C@H]2[C@H]([C@@H]3[C@H]4OC(=O)[C@@](C)(O)[C@@]5(C)C(=O)C[C@@H](C)[C@@H]([C@@H]45)[C@@]3(C)[C@H]1OC(C)=O)[C@@H](OC(C)=O)C(=O)[C@H]1C[C@@H]3O[C@@H]3[C@H](OC(C)=O)[C@]21C	-59
O=c1ccoc2cc(O)cc(O)c12	23
CC(C)c1cccc(=O)c(O)c1	3
C[C@@H]1[C@H]2[C@H](O[C@@H]3O[C@H](CO)[C@@H](O)[C@H](O)[C@H]3O)OC=C(C(=O)O)[C@H]2C[C@@H]1O	-13
COc1cc([C@@H]2OC[C@@H]3[C@H]2CO[C@H]3c2cc(OC)c(O)c(OC)c2)cc(OC)c1O	-39
C[C@H]1[C@H](C)CC[C@]2(C(=O)O[C@@H]3O[C@H](CO[C@@H]4O[C@H](CO)[C@@H](O[C@@H]5O[C@@H](C)[C@H](O)[C@@H](O)[C@H]5O)[C@H](O)[C@H]4O)[C@@H](O)[C@H](O)[C@H]3O)CC[C@]3(C)C(=CC[C@@H]4[C@@]5(C)C[C@@H](O)[C@H](O)[C@@](C)(CO)[C@@H]5[C@H](O)C[C@]43C)[C@H]12	17
COC(=O)[C@@H]1CC2=CC(=O)CC[C@]2(C)[C@@]23O[C@@H]2C[C@@]2(C)[C@@H](CC[C@@]24CCC(=O)O4)[C@H]13	1
O=C(O)/C=C/CCCCCCCCC(=O)O	-9
O=C(O)[C@H]1C[C@@H](O)CN1	-6
CN(C)c1cc(NC(=O)CNC(C)(C)C)c(O)c2c1C[C@H]1C[C@H]3[C@H](N(C)C)C(O)=C(C(N)=O)C(=O)[C@@]3(O)C(O)=C1C2=O	-9

A few entries again (study 3):
Structure (SMILES)	Emax [%]
CN(Cc1ccccc1)Cc1ccccc1OCC(O)CN1CCCCC1 (centres unmarked)	96.3
Oc1ccc(CCNCCCCCCNCCc2ccccc2)cc1O	96.6
CN(Cc1ccc(F)cc1)Cc1ccccc1OCC(O)CN1CCCCC1 (centres unmarked)	96.4
CCc1cc2c(cc1CC)CC(NCC(O)c1ccc(O)c3[nH]c(=O)ccc13)C2 (centres unmarked)	66
CC(C)(C)NCC(O)COc1ccccc1-c1ccccc1 (centres unmarked)	95.1
CN1Cc2sccc2C(c2ccc(O)c(O)c2)C1 (centres unmarked)	72.2
COc1ccccc1N1CCN(CC2CCOCC2)CC1	85.9
